Experimental data pooled from the literature.
Each line is one published result; not all experiments were run side by side.

SMILES	system	conditions	bioavailability [%]
COC1C=COC2(C)Oc3c(C)c(O)c4c(c3C2=O)C2=NC3(CCN(CC(C)C)CC3)NC2=C(NC(=O)C(C)=CC=CC(C)C(O)C(C)C(O)C(C)C(OC(=O)Nc2cscn2)C1C)C4=O (stereo not drawn)	female CD-1 mouse, plasma	oral, 10 mg/kg	52.7
NC(=O)c1ccc(C(=O)NOCc2ccc(Sc3cccc(Cl)c3)c(C(F)(F)F)c2)cc1	male CD-1 mouse, plasma	intraperitoneal, 30 mg/kg	55.8
COCc1nc(C(F)(F)F)[nH]c1-c1cc(C(=O)N2CC(c3ccc(C#N)cc3)C2)c(C)cc1C	mouse, plasma	oral, 10 mg/kg	125
COC1C=COC2(C)Oc3c(C)c(O)c4c(c3C2=O)C2=NC3(CCN(CC(C)C)CC3)NC2=C(NC(=O)C(C)=CC=CC(C)C(O)C(C)C(O)C(C)C(OC(=O)c2cccnc2)C1C)C4=O (stereo not drawn)	female CD-1 mouse, plasma	oral, 10 mg/kg	78.7
C=CC(=O)Nc1cccc(Cn2ncc3cnc(Nc4cnn(CCOC)c4)nc32)c1	male BALB/c mouse, plasma	oral, 30 mg/kg	24.7
O=C(Cc1ccc(-c2ccc(OCCN3CCOCC3)cc2)cn1)NCc1ccc(F)cc1	CD-1 mouse, plasma	oral, 10 mg/kg	116
COC1C=COC2(C)Oc3c(C)c(O)c4c(c3C2=O)C2=NC3(CCN(CC(C)C)CC3)NC2=C(NC(=O)C(C)=CC=CC(C)C(O)C(C)C(O)C(C)C(OC(=O)Nc2cccnn2)C1C)C4=O (stereo not drawn)	female CD-1 mouse, plasma	oral, 10 mg/kg	56.2
C=C(C)C(=O)Nc1ccc(-c2c(-c3ccc(Oc4nccc(C)n4)cc3)c3c(N)ncnc3n2C)cc1	nude mouse, plasma	oral	74
O=C(O)c1ccc(/C=C2\SC(=S)N(Cc3cccc(C(F)(F)F)c3)C2=O)cc1	C57BL/6 mouse, blood	oral, 10 mg/kg	72
CCS(=O)(=O)c1ccccc1C(=O)N1CCN(c2nc3ccc(F)cc3s2)C[C@@H]1C	mouse, plasma	oral, 3 mg/kg	72
CCOC(=O)c1nc2cc(Cl)c(Cl)cc2nc1N1CCN(C(=O)Nc2ccc(N3CCNCC3)cc2)CC1	male mouse, plasma	oral, 10 mg/kg	11.2
CCc1nc(N)nc(N)c1C#C[C@H](C)c1cc(-c2ccncc2)ccc1OC	mouse, plasma	oral, 16 mg/kg, single dose	8.4
N#Cc1cnc2cc(OCC3CCNCC3)c(F)cc2c1Nc1cc(F)c(OCc2cccc(Cl)n2)cc1Cl	female CD-1 mouse, plasma	oral, 20 mg/kg	35
C[C@H]1CN(C(=O)c2cn(-c3ccnc(N)n3)c3cc(C#CC4(O)CCCCC4)ccc23)CCN1	CD-1 mouse, plasma	oral, 10 mg/kg	6.26
CCC(=O)N(C)c1ccc(Cl)c(Cl)c1	female C57BL/6 mouse, plasma	subcutaneous, 2 mg/kg	82.6
C=CCC1C(=O)C=C(OC)C2(OC)C(C)C(c3ccc4c(c3)OCO4)OC12 (single isomer, unassigned; (-))	male C57BL/6 mouse, blood	oral, 10 mg/kg	10.9
COC(=O)c1ccc2c(c1)NC(=O)/C2=C(\Nc1ccc2c(c1)CCN2C(=O)CN1CCOCC1)c1ccccc1	CD-1 mouse, plasma	oral, 50 mg/kg	51
N#Cc1ccc(-c2cc(=O)c3ccc4[nH]c(C(F)(F)F)nc4c3o2)cc1	CD-1 mouse, plasma	oral, 5 mg/kg	~136

Repeated from above:
SMILES	system	conditions	bioavailability [%]
O=C(O)c1ccc(/C=C2\SC(=S)N(Cc3cccc(C(F)(F)F)c3)C2=O)cc1	C57BL/6 mouse, blood	oral, 10 mg/kg	72
COC(=O)c1ccc2c(c1)NC(=O)/C2=C(\Nc1ccc2c(c1)CCN2C(=O)CN1CCOCC1)c1ccccc1	CD-1 mouse, plasma	oral, 50 mg/kg	51
